# Results collected from several papers.
# Parts stem from different laboratories: compare values within a part only. Values joined by “and” are separate records of one study, mostly repeats; a detail may differ. Substitutions count along the parent as printed.
# UniProt P28566, sequence (whole entry, looked up): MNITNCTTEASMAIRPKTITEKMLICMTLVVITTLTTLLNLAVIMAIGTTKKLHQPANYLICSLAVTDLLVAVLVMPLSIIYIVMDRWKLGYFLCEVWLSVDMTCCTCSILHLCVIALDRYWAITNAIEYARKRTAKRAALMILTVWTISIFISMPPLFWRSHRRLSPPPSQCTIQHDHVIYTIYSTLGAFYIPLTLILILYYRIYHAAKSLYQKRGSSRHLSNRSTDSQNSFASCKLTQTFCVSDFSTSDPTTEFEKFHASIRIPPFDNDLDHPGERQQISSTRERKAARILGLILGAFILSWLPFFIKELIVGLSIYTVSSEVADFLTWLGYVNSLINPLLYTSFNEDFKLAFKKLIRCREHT
# UniProt Q5XXA6, sequence (whole entry, unmodified, looked up): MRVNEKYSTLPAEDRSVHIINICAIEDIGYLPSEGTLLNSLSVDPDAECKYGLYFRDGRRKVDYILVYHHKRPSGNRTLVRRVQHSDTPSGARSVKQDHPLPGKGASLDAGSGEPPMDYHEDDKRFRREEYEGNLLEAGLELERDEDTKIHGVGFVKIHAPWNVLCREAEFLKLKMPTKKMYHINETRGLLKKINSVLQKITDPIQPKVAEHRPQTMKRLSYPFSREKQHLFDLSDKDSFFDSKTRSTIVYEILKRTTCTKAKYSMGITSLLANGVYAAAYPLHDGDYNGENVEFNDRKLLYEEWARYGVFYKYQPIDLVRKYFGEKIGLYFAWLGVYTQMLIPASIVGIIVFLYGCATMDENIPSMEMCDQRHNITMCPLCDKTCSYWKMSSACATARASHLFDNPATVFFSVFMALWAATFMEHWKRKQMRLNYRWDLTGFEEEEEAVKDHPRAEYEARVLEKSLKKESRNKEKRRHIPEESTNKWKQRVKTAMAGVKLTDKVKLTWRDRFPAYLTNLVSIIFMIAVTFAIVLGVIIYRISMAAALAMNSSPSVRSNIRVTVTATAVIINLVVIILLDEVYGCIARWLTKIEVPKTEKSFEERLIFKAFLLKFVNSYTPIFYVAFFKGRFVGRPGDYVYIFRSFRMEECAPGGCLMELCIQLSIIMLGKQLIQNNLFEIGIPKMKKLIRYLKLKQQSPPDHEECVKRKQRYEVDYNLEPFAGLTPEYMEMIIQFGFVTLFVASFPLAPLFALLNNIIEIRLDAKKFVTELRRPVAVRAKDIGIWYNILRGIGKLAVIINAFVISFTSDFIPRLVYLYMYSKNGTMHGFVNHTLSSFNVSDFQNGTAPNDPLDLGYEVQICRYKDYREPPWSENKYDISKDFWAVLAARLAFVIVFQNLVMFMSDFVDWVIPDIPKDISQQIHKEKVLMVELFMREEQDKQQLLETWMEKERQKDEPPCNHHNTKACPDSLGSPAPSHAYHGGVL

# Set 1 — technique: DHFR PCA, deep sequencing; sample: yeast; with: (+)-ABA 4.8 µM; relative to: wild-type fitted maximum; reading: higher = stronger binding
# Target: ABI1, truncated, D143A, DHFR fusion (Arabidopsis thaliana)
# Setting: methotrexate growth selection, single substitutions
# Starting sequence: PYL1, truncated, DHFR fusion (Arabidopsis thaliana); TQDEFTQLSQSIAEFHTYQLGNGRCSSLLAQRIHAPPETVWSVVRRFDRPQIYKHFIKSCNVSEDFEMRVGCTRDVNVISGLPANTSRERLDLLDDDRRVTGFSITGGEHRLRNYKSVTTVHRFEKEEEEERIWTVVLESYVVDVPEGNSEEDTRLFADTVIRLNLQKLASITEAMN
Variant,relative binding score [%]
S140L,-2.49
C60V,68.5
R46E,35.1
V137Q,4.7
E64C,65
I172W,8.75
I79N,27
R113F,32.3

# Set 2 — technique: protein-binding microarray; molecule type: double-stranded DNA, one strand shown; sample: in vitro; concentration: not given; reading: higher = stronger binding
# Target: Protein max, full length (MAX, Homo sapiens, UniProt P61244-2, residues 1-151)
# Setting: k-mer, scored over probes, only values ≥0.25
Sequence,E-score
TCACACGA,0.265
ACGTGGTC,0.443
ACGCCGCA,0.314
CGTGGCGA,0.374
ATTGCACG,0.366
ACATGTAA,0.268
ACCATATG,0.383
GAAACACA,0.279

# Mixed results
Compound,target or system,assay,conditions,scale,measurement,value
C=CCc1ccc(O)c(-c2cc(CC=C)ccc2O)c1,"Anoctamin-1 (ANO1, Homo sapiens, UniProt Q5XXA6, del476-501/R561A)","chloride current, whole-cell voltage clamp",membrane voltage -100 mV,,IC50,46.8 µM
CCOc1ccc(S(=O)(=O)Nc2ccc(Cl)cc2C#Cc2cnc(C(=O)O)cc2OC)c2ncccc12,"HTR1E (Homo sapiens, UniProt P28566)","binding, radioligand binding",,,Ki,> 10 µM
COc1ccc(Oc2cc(NCCC(F)(F)F)c3ncc(-c4ccc(C(=O)NC5CC5)c(C)c4)n3n2)c(F)c1F,NCI-H1048,Vi-Cell,"750 pM, 3 d",relative to: DMSO,cell count,0.895 and 0.957

# Repeated from above (set 1):
Variant,relative binding score [%]
R113F,32.3
I79N,27
